# Measurements of several laboratories.
# Protocols differ between the studies behind these lines. Numbers after ± are the reported error.
# UniProt P42866, sequence (whole entry, looked up): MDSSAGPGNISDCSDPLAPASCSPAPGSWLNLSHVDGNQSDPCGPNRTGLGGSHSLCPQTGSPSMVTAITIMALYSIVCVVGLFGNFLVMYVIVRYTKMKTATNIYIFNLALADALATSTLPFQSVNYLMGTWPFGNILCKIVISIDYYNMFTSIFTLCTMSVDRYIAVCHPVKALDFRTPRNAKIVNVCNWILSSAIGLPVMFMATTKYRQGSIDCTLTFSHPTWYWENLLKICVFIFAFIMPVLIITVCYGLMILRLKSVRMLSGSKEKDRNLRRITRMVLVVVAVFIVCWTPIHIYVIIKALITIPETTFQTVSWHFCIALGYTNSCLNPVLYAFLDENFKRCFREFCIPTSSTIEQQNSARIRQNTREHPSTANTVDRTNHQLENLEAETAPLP
# UniProt P10632, sequence (whole entry, looked up): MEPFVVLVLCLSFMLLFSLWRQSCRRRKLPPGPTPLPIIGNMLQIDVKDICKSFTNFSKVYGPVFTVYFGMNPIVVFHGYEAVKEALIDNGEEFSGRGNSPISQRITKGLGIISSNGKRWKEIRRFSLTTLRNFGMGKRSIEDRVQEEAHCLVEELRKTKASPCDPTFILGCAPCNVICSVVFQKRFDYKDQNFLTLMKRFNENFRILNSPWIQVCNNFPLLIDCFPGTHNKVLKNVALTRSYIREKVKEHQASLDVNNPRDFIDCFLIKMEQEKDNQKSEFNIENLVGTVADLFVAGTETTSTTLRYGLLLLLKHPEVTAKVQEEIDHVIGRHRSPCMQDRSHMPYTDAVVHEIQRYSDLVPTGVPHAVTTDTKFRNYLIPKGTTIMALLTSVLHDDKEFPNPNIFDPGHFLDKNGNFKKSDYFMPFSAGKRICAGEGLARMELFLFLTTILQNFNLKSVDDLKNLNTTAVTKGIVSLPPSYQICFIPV
# UniProt P37136, sequence (whole entry, looked up): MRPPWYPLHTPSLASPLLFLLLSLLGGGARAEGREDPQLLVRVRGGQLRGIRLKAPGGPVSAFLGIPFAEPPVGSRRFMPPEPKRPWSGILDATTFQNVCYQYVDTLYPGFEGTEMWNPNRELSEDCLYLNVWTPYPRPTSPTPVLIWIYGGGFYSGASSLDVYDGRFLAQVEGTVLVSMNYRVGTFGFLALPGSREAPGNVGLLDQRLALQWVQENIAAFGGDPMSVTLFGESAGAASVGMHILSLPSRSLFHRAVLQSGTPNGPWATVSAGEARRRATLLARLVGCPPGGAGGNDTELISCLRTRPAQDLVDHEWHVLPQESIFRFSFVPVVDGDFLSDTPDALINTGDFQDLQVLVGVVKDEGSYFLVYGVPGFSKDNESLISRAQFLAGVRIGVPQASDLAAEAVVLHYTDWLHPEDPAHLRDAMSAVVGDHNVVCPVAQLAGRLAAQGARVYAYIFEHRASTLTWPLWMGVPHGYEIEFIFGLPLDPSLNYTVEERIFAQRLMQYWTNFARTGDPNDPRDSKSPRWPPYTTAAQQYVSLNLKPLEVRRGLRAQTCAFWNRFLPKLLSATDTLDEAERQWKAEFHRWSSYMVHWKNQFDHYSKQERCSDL
# UniProt P41143, sequence (whole entry, looked up): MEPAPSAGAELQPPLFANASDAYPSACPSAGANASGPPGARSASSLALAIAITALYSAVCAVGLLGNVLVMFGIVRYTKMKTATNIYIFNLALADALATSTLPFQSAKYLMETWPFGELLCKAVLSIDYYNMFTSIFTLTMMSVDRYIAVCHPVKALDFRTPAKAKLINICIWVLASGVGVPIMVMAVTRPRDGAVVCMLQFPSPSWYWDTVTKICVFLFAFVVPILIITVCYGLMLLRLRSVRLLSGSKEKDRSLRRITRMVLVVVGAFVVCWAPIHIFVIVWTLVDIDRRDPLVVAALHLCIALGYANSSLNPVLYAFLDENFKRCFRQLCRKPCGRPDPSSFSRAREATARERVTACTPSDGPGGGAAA
# UniProt P06276, sequence (whole entry, looked up): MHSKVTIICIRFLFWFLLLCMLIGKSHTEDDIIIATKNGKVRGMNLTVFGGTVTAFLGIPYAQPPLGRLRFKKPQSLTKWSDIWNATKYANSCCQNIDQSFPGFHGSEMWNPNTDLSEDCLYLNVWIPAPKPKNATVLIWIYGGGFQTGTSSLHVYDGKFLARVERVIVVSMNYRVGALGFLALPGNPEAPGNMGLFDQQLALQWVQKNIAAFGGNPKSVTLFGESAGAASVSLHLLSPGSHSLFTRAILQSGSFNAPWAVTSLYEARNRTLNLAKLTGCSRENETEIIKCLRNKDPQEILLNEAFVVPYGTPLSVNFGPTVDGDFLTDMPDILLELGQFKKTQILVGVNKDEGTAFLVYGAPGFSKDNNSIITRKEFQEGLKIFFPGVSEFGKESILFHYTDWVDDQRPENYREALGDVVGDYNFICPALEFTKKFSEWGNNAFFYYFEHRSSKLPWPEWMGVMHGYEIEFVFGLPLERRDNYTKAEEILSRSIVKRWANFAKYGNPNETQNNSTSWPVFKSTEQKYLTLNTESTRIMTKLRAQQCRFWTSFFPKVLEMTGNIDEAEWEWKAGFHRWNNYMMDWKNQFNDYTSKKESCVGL
Substance,target or system,test,test system,setting,scale,quantity,result
benzalkonium bromide,"Cholinesterase (BCHE, Homo sapiens, UniProt P06276)","enzyme activity, inhibitor",,concentration not given,,inhibition,-80 ± 5.25%
DAMGO,"Oprm1 (Mus musculus, UniProt P42866)","G protein activation, agonist",MOR-CHO cell membranes,,reference: full agonist,Emax,100 ± 9.2%
SNC80,"Delta-type opioid receptor, with Gz (OPRD1, Homo sapiens, UniProt P41143)","Gz activation, agonist",,,,EC50,0.36 nM
insulin,,,PBS,,,solubility,1050 µM
mitragynine,"Cytochrome P450 2C8 (CYP2C8, Homo sapiens, UniProt P10632)","amodiaquine N-deethylation, inhibitor",human liver microsomes,,,IC50,33.5 µM
phoxim-oxon,"Ache (Rattus norvegicus, UniProt P37136)",inhibitor,"rat, postnatal day 1, rat brain homogenate","15 min, 37 °C",,IC50,0.05 µM
maraviroc,,,,,,pKa,7.3

# A few entries again:
Substance,target or system,test,test system,setting,scale,quantity,result
SNC80,"Delta-type opioid receptor, with Gz (OPRD1, Homo sapiens, UniProt P41143)","Gz activation, agonist",,,,EC50,0.36 nM
